Measurements pooled from the literature.
Every numbered part comes from another study and shows a few of its results, in no order.

Series 1
Target: Histone acetyltransferase KAT6A, winged helix 2, GST fusion (KAT6A, Homo sapiens, UniProt Q92794, residues 85-181)
Method: protein binding microarray
Form: double-stranded DNA, one strand shown
Sample: in vitro
Tested at: not given
Notes: 8-mer, flanks averaged, mean of 2 arrays, mostly near background
Relative to: not given
Direction: higher = stronger binding
Residues (chain): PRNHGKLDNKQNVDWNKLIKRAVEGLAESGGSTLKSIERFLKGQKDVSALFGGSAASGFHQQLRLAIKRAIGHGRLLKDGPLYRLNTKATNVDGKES
`GTCGACCA` has an E-score of -0.0284.
`GAACCTAC` gave an E-score of 0.0489.
With `ACCCCGTG` the E-score was -0.0376.
`CAGCCACG` gave an E-score of -0.0256.
The E-score of `CACCTTGC` is reported as 0.0261.
For `ATAACTAA`, the E-score was 0.0244.
`GAGGTAGA` gave an E-score of -0.102.
`CAGCCCGC` gave an E-score of 0.0943.
The E-score of `GATCGCTA` is reported as -0.134.
With `CCACTGCA` the E-score was -0.0428.
For `GGCGCTTA`, the E-score was -0.0961.
The E-score of `ATGACGTG` is reported as -0.193.
The E-score of `CACATGTC` is reported as -0.104.
The E-score of `ACTTAGAC` is reported as 0.0386.
For `AGATTAAT`, the E-score was 0.0652.
For `CCATGGGC`, the E-score was -0.0561.
With `AGCATCGC` the E-score was 0.0804.
`ACATCAAT` has an E-score of -0.175.
With `TCTTAAAA` the E-score was 0.046.
With `ATTCGGTG` the E-score was 0.138.
The E-score of `AATAACCT` is reported as -0.166.
For `CTCTTGCC`, the E-score was 0.0229.
With `CCCCAAAG` the E-score was -0.0264.
With `GAGGCACC` the E-score was -0.077.
The E-score of `ACGTTGCG` is reported as -0.181.

Series 2
Target: Prothrombin, mature alpha-thrombin (F2, Homo sapiens, UniProt P00734)
Method: aptamer microarray, sandwich
Form: DNA with 2'F-ANA
Sample: in vitro
Tested at: 200 nM
Notes: whole 15-mer aptamer, many near background
Together with: Cy3 exosite-II aptamer, 400 nM
Direction: higher = stronger binding
Strand: GGTTGGTGTGGTTGG
`2'F-ANA at 1 5 8 10 11 12 14`: “mean fluorescence intensity” 106 a.u.
For `2'F-ANA at 1 2 3 4 5 7 8 13`, “mean fluorescence intensity” read 61.3 a.u.
`2'F-ANA at 1 2 3 6 8 9 11 13` — result for “mean fluorescence intensity”: 161 a.u.
`2'F-ANA at 1 3 6 7 11`: “mean fluorescence intensity” 250 a.u.
`2'F-ANA at 2 4 7 8 10 14 15` — result for “mean fluorescence intensity”: 71.5 a.u.
`2'F-ANA at 1 2 3 5 7 11 12 13 15`: “mean fluorescence intensity” 73.8 a.u.
`2'F-ANA at 9 11 12 14`: “mean fluorescence intensity” 230 a.u.
For `2'F-ANA at 1 6 10 12`, “mean fluorescence intensity” read 70.7 a.u.
Under “mean fluorescence intensity”, `2'F-ANA at 2 6 8 12` is recorded as 799 a.u.
For `2'F-ANA at 2 5 7 9 11 12 14 15`, “mean fluorescence intensity” read 48.1 a.u.
Under “mean fluorescence intensity”, `2'F-ANA at 1 3 7 10 11 14 15` is recorded as 56.5 a.u.
`2'F-ANA at 2 4 6 7 12 13`: “mean fluorescence intensity” 385 a.u.
`2'F-ANA at 1 3 5 9 10 11 12` — result for “mean fluorescence intensity”: 48.1 a.u.
`2'F-ANA at 1 3 7 11 12 13 14`: “mean fluorescence intensity” 135 a.u.
`2'F-ANA at 1 8 11 12 13 14 15` — result for “mean fluorescence intensity”: 75.3 a.u.
`2'F-ANA at 6 7 10 12` — result for “mean fluorescence intensity”: 237 a.u.
Under “mean fluorescence intensity”, `2'F-ANA at 1 3 6 7 8 9 11 14` is recorded as 86.3 a.u.
`2'F-ANA at 1 3 7 8 10 11 13`: “mean fluorescence intensity” 80.1 a.u.
Under “mean fluorescence intensity”, `2'F-ANA at 4 5 6 7 8 9 10 14` is recorded as 46.3 a.u.
`2'F-ANA at 2 3 5 7 9 11 12 15` — result for “mean fluorescence intensity”: 254 a.u.
`2'F-ANA at 2 3 4 5 8 10 12 13` — result for “mean fluorescence intensity”: 81.6 a.u.
Under “mean fluorescence intensity”, `2'F-ANA at 2 5 6 9 10 11 12 15` is recorded as 78.2 a.u.
`2'F-ANA at 1 2 3 4 6 11 12 13 15`: “mean fluorescence intensity” 467 a.u.

Series 3
Target: RNA binding protein fox-1 homolog 2, RRM domain, GST-SBP tag (RBFOX2, Homo sapiens, UniProt O43251-10, residues 100-194)
Method: RNA Bind-n-Seq
Form: RNA
Sample: in vitro
Tested at: 365 nM
Notes: natural RNA segment, single round, ends assumed
Relative to: no-protein control
Direction: higher = stronger binding
Construct (chain): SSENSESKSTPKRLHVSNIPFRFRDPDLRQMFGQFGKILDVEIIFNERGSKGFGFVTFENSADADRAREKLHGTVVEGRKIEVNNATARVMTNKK
`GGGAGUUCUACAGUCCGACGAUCACUCCCAAACCCAGCACUCCAGACUCGAGGGAAGCCAGCUUCCAAGAACUGGAAUGCGUACGUCUUUUGUGCCACCUUGUACAAAGCCGGCUGCCCAGCCCCAGCCUCACUGGAAUUCUCGGGUGCCAA`: “RBNS enrichment (R)” 0.245.
For `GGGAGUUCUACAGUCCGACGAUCUCCUGUGACGGGAGGGAUGGUUAAGGUACAAAGGCUAGAAACUUGAGUUUCUUCAUUUCUGUCUCACAAUUAUCAAAAGCUAGAAUUAGCUUCUGCCCUAUGUUUCUGUAUGGAAUUCUCGGGUGCCAA`, “RBNS enrichment (R)” read 0.344.
`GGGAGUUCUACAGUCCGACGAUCGGACCAGGUCUUCUUAUGCAGUGACAAGAGUGCGUAGUGUUUUCUUUGCAUACUGUUCAUCGCAGUAGCAACAAAAUUGCAAUCAGCCAACAGGCUUUAAAACGUCCCUGUGGAAUUCUCGGGUGCCAA`: “RBNS enrichment (R)” 0.225.
`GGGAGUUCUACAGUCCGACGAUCUUUUCAUAGACAGACGAGGCAACUGCAUAUAGGUUUUGUCUUUAAAACCACCUUUAAUCUAGAUACAUAGACUAACAGUGGAUUUUUUUUAACCCUUUAUCUUUCUGCCCUGGAAUUCUCGGGUGCCAA` — result for “RBNS enrichment (R)”: 0.256.
`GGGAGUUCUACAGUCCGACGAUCUUAAACUGGGCUGAGGCUGGUAAGACUAUAAAGCAGUGGCCCAUAAGGACUCUUAAGCGUGAGGCCAAGGAGCCACGUCCCUUCCCAGUCUGCCUGGCCCAGGGGGGCUGUGGAAUUCUCGGGUGCCAA` — result for “RBNS enrichment (R)”: 0.432.
`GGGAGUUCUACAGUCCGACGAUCUUUUAAAUACAUUUCAAUAAUUUUAACAAAUUUGCAUUUUUAUUGAGUUGCUGACUGAAUCUAUCUUAUACUGUGCUUCUGCAACAACAAAAAUUAUGCAGAAAAAUUCAUGGAAUUCUCGGGUGCCAA`: “RBNS enrichment (R)” 0.739.
Under “RBNS enrichment (R)”, `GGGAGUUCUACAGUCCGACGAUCGGGGAGGUCACUCAAUUCAAAAUUUUCUGUAUGAAAGCAUUUUUCACCAAAAUGAGCCUCAUCCCUUUAUGCAACACAUAACCUUACUGAGGGAGGGAAAUACAGAAGCCUGGAAUUCUCGGGUGCCAA` is recorded as 0.362.
`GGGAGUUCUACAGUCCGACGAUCCACCAUAGACUUGAUCCCAUCCUUACAACCCAUCCUUCUAACUUGAUGUGUAUAAAAUAUGCAAACAUUUCACAAAUGUUCUUUGUCAUUUCAAAAUACUUUAGUAUAUCUGGAAUUCUCGGGUGCCAA` — result for “RBNS enrichment (R)”: 0.584.

Series 4
Target: Interferon regulatory factor 7, full length, phosphomimetic (IRF7, Homo sapiens, UniProt Q92985, residues 1-503, S101K/S471D/S472D/S475D/S476D/S477D/S483D/S484D/S487D)
Method: protein-binding microarray
Form: double-stranded DNA, one strand shown
Sample: in vitro
Tested at: 250 nM
Notes: 60-bp whole probe
Together with: salmon DNA 0.4 mg/ml
Relative to: random background probes
Direction: higher = stronger binding
All sequences stand within: GCCTAGCAC … GTCTTGATTCGCTTGACGCTGCTG
Construct (chain): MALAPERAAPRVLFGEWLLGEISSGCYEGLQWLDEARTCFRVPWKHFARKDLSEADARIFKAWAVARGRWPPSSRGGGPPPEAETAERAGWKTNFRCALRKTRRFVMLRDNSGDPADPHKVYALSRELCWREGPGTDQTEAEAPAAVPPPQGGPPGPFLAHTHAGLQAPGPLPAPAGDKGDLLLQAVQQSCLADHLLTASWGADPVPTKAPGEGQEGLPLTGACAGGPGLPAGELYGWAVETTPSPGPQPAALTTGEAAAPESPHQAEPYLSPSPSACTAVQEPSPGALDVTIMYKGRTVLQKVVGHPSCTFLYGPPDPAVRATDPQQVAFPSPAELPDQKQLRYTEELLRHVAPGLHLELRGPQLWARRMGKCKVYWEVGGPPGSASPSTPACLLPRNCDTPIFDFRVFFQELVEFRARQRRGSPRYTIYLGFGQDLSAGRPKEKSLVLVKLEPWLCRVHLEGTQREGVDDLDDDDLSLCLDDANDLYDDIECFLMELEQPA
`GACAATTCCAGTTTCGAGACGTGCTAG` has a log fluorescence of 4.95 z-score.
With `GACGAACGGAGACTGGAGACGTGCTAG` the log fluorescence was -0.201 z-score.
For `TTAGGACTGGGACCGGGTTAGTGCTAG`, the log fluorescence was 0.702 z-score.
For `TGGGTCTTGGTTCTCAGCTTGTGCTAG`, the log fluorescence was 0.615 z-score.
For `AAACGGGCTTCTTTTTCTCAGGTGCTA`, the log fluorescence was -0.0919 z-score.
`TCACTTTCAGTTTTCCTACTGTGCTAG` has a log fluorescence of 2.81 z-score.
With `GACGATTTAAGTTTCGAGACGTGCTAG` the log fluorescence was 4.17 z-score.
`GACGGTGTCGGTTCCGGGACGTGCTAG` gave a log fluorescence of -0.271 z-score.
For `TCACTTTTTTTTCTTTAACTGTGCTAG`, the log fluorescence was 1.2 z-score.
The log fluorescence of `GACGGTTTCCTTATCCCGACGTGCTAG` is reported as 3.89 z-score.
For `GACCGTTTCCTACTGCTGACGTGCTAG`, the log fluorescence was 2.46 z-score.
With `ACATATTTGTTTCCATTTTCGTGCTAG` the log fluorescence was 3.29 z-score.
`TCAAATCCCACATTTGATACTGTGCTA` has a log fluorescence of 0.47 z-score.
For `TTAGATTTCGGGACTGGATTCGTGCTA`, the log fluorescence was 0.578 z-score.
With `TTAGATATCAGTTTCGGTTAGTGCTAG` the log fluorescence was 8.58 z-score.
`TTAGATTTCGGGTATTGATTAGTGCTA` gave a log fluorescence of 0.782 z-score.
With `TTAGGACTGCTACTGCCTTAGTGCTAG` the log fluorescence was -0.558 z-score.
The log fluorescence of `TTAGGTTTCGACTGTCGGTTAGTGCTA` is reported as 4.74 z-score.
`TTAGGTTGCGGGTTTCGGTTAGTGCTA` has a log fluorescence of 6.1 z-score.

Some of these lines once more (series 1):
For `GGCGCTTA`, the E-score was -0.0961.
The E-score of `ATGACGTG` is reported as -0.193.
The E-score of `CACATGTC` is reported as -0.104.
The E-score of `ACTTAGAC` is reported as 0.0386.
For `AGATTAAT`, the E-score was 0.0652.
For `CCATGGGC`, the E-score was -0.0561.
With `AGCATCGC` the E-score was 0.0804.
`ACATCAAT` has an E-score of -0.175.
With `TCTTAAAA` the E-score was 0.046.
With `ATTCGGTG` the E-score was 0.138.
